Results collected from several papers.
Each numbered part is a random draw from the data of one study; scales do not carry over between parts.
Sequence of UniProt Q9H2K8 (whole entry, looked up): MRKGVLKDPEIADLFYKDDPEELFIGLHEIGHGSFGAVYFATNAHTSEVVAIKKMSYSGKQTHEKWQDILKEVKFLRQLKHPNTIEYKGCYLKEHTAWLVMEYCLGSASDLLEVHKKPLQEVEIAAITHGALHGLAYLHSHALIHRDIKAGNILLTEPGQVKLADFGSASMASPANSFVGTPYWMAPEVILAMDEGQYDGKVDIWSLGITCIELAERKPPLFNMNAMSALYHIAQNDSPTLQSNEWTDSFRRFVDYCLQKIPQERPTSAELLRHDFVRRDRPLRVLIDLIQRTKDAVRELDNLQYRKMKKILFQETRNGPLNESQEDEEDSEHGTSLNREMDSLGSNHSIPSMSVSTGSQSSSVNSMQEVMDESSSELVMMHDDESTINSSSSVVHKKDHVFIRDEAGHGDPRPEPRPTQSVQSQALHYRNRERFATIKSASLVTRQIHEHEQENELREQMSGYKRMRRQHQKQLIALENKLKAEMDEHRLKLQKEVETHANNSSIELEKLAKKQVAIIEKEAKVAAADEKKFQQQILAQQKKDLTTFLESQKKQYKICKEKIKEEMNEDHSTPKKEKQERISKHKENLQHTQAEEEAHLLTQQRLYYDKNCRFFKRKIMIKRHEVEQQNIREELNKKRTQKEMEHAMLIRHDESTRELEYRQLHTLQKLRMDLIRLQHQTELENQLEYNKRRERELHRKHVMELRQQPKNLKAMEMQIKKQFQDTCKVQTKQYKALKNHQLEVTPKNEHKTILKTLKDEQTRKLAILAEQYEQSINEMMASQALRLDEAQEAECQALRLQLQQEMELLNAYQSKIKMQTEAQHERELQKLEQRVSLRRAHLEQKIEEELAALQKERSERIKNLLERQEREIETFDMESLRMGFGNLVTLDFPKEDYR
Sequence of UniProt O00444 (whole entry, looked up): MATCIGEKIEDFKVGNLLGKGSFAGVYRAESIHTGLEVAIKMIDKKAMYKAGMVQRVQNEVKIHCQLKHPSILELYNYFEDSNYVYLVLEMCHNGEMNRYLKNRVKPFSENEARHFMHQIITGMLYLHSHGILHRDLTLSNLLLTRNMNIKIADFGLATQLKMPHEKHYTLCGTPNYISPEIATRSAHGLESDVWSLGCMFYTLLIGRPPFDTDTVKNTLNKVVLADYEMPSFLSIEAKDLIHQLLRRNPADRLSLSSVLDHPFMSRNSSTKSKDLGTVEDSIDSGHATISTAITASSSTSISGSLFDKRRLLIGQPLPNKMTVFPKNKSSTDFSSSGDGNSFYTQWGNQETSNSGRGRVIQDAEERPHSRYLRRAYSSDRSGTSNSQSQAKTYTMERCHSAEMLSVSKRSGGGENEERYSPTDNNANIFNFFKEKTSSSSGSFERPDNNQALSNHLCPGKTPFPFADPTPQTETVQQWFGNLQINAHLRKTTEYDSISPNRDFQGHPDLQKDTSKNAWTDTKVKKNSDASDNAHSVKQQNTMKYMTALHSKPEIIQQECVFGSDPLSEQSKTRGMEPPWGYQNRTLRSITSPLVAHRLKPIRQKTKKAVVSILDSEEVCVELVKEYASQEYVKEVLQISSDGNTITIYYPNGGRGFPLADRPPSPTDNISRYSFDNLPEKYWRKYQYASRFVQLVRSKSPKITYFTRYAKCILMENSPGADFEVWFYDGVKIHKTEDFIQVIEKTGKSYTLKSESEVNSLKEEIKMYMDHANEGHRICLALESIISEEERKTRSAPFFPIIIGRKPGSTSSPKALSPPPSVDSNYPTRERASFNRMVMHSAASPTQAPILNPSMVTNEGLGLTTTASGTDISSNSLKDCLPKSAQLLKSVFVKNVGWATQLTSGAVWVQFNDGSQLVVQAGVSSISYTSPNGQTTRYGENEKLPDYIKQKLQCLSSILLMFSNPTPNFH
Sequence of UniProt P37173 (whole entry, looked up): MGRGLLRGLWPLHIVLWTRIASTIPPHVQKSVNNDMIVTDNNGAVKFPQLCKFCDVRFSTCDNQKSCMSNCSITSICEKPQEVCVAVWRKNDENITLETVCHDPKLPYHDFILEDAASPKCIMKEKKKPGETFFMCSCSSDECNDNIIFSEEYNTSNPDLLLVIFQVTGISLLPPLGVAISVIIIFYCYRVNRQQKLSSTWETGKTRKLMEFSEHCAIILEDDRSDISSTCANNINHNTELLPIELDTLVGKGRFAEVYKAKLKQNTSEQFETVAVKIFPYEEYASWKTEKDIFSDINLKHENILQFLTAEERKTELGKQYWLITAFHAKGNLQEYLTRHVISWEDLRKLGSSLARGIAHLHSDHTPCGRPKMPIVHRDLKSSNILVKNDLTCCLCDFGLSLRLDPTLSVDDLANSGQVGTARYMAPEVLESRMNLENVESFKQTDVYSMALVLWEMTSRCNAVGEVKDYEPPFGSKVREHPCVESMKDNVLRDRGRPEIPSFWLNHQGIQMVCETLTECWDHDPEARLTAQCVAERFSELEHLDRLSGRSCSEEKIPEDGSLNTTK
Sequence of UniProt Q04912 (whole entry, looked up): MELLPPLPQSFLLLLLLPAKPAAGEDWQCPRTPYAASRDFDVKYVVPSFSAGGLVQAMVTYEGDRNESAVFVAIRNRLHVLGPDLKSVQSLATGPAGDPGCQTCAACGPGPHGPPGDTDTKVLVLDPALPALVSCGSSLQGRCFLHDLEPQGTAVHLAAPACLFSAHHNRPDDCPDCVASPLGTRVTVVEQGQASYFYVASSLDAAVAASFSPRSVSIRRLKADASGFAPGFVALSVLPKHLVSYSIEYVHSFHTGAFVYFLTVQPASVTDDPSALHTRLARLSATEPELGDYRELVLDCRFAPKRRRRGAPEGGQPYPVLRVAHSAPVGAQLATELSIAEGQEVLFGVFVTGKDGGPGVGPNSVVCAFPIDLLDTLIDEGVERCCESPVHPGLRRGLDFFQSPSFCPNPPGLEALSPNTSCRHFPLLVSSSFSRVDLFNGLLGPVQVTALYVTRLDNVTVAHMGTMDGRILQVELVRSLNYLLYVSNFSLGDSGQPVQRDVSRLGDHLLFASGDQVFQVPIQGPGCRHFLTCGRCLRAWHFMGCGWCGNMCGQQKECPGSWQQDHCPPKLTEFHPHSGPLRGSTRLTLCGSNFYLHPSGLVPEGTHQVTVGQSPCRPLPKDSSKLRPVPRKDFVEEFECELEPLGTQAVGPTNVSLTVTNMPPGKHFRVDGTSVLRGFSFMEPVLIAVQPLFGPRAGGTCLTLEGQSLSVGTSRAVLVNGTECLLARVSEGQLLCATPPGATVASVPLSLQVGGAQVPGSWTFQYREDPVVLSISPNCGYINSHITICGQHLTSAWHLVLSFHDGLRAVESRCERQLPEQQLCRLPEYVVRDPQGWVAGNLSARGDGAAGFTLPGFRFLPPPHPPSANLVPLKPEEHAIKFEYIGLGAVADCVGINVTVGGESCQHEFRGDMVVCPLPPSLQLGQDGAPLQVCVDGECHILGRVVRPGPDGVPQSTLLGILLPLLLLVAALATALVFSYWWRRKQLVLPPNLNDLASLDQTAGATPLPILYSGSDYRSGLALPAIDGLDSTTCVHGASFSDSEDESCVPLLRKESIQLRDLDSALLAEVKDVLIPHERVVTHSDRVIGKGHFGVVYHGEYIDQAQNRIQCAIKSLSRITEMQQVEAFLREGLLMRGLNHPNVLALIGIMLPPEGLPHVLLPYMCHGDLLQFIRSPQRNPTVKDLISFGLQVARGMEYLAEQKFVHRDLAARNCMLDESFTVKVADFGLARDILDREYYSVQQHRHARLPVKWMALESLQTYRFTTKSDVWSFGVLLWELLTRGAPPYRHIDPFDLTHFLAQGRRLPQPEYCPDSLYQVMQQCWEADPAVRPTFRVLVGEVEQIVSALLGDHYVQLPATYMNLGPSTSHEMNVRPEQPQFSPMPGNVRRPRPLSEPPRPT

Sample 1
Cell line: normal-adjacent organoid sample E
Technique: CellTiter-Glo
Concentration: 1 µM
Notes: replicate mean
Relative to: DMSO
Structure (SMILES) | viability
O=C(NCc1ncc(C(F)(F)F)cc1Cl)c1ccc2c(c1)C1(CCS(=O)(=O)CC1)[C@@H](C1CC1)N2S(=O)(=O)c1ccc(F)cc1 | 108%
C[C@H](NC(=O)Nc1cc2[nH]ncc2c(CO)n1)c1ccccn1 | 124%
Cc1ccc2nc(CNCCCOc3ccccc3)cc(O)c2c1 | 117%
CO[C@@H](C)c1c(Nc2ccc([C@@H](N(C)C(=O)C3CCS(=O)(=O)CC3)C(F)(F)F)cc2)cnc2cc(Cl)nn12 | 129%
c1ccc(N2CCN(Cc3nc4ccccc4[nH]3)CC2)nc1 | 134%
Cc1ccc2[nH]c(CNCCCc3ccncc3)cc(=O)c2c1 | 102%
O=C(O)c1cc(-c2ccc(C3CCNCC3)cc2)c2ccc(-c3ccc(C(F)(F)F)cc3)cc2c1 | 118%
CCOCCn1cc(C(=O)Nc2ccc(-n3nc(-c4cccnc4)cc3C(F)(F)F)cn2)ccc1=O | 125%
O=C(N1CCS(=O)(=O)CC1)N1C[C@H](c2ccc(OC(F)(F)F)cc2)C[C@H](c2nc(C3CC3)no2)C1 | 89.6%
CC(=O)C1=C(C)N(c2cccc(C(F)(F)F)c2)C(=O)N[C@H]1c1ccc(C#N)nc1 | 113%
CC(=O)Nc1c(C(C)=O)c(=O)n(C)c2nc(-c3ccc(Cl)cc3Cl)c(-c3ccc(Cl)cc3)cc12 | 104%
O=C(O)[C@@H]1[C@@H](Cn2nnc3ccccc3c2=O)CC[C@H]1C(=O)c1ccc(OCCC2CCOCC2)cc1 | 106%
O=C(NCCN1CCOCC1)c1ccc2c(c1)C(=O)c1ccc(Nc3ccc(F)c(NC(=O)c4ccccc4)c3)cc1CC2 | 85.6%
CCCCN(CCCC)C(=O)CN1C[C@@H](c2cc(OC)c3c(c2)OCO3)[C@H](C(=O)O)[C@H]1CC(C)(C)CCC | 116%
Cc1cnc(-c2cc(Cl)ccc2F)cc1-n1c(=O)n(CC(N)=O)c2cnccc21 | 120%
O=C(NS(=O)(=O)c1ccc(NCC2CCOCC2)c([N+](=O)[O-])c1)c1ccc(N2CCN(Cc3ccc(C(F)(F)F)cc3-c3ccc(Cl)cc3)CC2)cc1Oc1cnc2[nH]ccc2c1 | 107%
O=C1NC(c2ccccn2)Sc2ccccc21 (centres unmarked) | 111%
NS(=O)(=O)c1cc(NC(=O)C2(c3ccccc3Cl)CC2)ccc1Oc1cccc(Cl)c1 | 110%
Cc1nc(N2CC[C@@H](O)C2)ncc1-c1cc(C(F)(F)F)cc2[nH]ncc12 | 101%
CN(C)CC#Cc1ccc(OCCCc2sc(N3CCc4cccc(C(=O)Nc5nc6ccccc6s5)c4C3)nc2C(=O)O)c(F)c1 | 56.4%
Cc1c(N2CCNCC2)nc2ccc(Br)cc2c1C(=O)NC[C@H](CCC(=O)O)c1ccccc1Cl | 106%
CC(=O)c1c(NS(C)(=O)=O)c2cc(-c3ccc(Cl)cc3)c(-c3ccc(Cl)cc3Cl)nc2n(C)c1=O | 89.5%
Cc1c(NC(=O)c2ccc(C(C)(C)C)cc2)cccc1-c1cn(C)c(=O)c(Nc2ccc(C(=O)N3CCOCC3)cc2)n1 | 87.2%
O=c1nc(-c2ccccn2)sc2ccccc12 | 66.9%
Cc1cc(NC(=O)c2cccc(S(F)(F)(F)(F)F)c2)cc(-n2ccn3nc(-c4cccnc4)cc23)c1 | 110%

Sample 2
Target: Ephrin type-A receptor 7 (EPHA7, Homo sapiens, UniProt Q15375)
Sequence of UniProt Q15375 (whole entry, looked up): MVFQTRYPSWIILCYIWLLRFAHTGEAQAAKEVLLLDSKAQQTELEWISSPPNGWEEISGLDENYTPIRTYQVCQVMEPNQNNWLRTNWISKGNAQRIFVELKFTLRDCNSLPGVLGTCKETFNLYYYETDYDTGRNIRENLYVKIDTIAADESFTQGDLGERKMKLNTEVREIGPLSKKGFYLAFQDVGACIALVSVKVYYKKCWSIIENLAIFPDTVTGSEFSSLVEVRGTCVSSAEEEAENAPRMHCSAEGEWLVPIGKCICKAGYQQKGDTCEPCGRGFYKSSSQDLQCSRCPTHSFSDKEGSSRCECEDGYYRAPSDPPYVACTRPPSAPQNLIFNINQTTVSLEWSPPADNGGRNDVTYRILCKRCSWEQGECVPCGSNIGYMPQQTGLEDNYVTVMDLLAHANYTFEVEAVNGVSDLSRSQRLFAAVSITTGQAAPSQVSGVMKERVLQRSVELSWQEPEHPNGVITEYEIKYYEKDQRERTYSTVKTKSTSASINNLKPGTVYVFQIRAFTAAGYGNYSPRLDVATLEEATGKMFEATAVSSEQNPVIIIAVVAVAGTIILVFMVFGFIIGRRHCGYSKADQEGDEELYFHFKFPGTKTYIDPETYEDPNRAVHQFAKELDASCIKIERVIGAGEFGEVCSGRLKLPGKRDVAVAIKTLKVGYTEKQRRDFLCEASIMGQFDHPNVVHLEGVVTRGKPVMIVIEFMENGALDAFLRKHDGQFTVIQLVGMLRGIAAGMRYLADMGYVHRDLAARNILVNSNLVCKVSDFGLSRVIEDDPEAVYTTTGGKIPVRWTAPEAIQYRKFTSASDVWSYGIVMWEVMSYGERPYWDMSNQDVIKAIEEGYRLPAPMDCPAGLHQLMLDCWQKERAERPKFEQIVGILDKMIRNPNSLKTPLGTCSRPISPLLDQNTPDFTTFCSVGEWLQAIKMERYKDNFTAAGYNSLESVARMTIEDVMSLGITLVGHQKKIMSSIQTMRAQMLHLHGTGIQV
Read-out: enzyme activity
Mode: inhibitor
Concentration: 0.5 µM
Relative to: control
Structure (SMILES) | remaining activity [%]
O=C1NC(=O)/C(=C/c2ccc3c(c2)OC(F)(F)O3)S1 | 98.7
O=c1c(-c2ccc(F)cc2)c(-c2ccncc2)[nH]n1-c1ccc(Cl)cc1 | 98.5
COc1cc2c(N3CCN(C(=O)Nc4ccc(OC(C)C)cc4)CC3)ncnc2cc1OCCCN1CCCCC1 | 97.5
NC(=O)c1ccc(-c2nc(-c3ccc4c(c3)OCCO4)c(-c3ccccn3)[nH]2)cc1 | 96.5
O=C(O)/C=C/c1cc(Br)c(Br)c(Br)c1Br | 94.1
O=C1c2ccccc2-c2nc3nnnn3nc21 | 81.9
CCCCc1c(-c2ccc(O)cc2)[nH]c2nccnc12 | 89
O=C(c1ccccc1)c1ccc(N2CCOCC2)cc1O | 98.3
CC(C)n1cnc2c(Nc3cccc(Cl)c3)nc(NCCO)nc21 | 87.1
N#C/C(=C(/N)SC1C=CC=CC1)c1cccc(C(O)c2ccncc2)c1 (centres unmarked) | 105
CNc1cc2c(Nc3cccc(Br)c3)ncnc2cn1 | 94.6
COc1cc2c(Nc3ccc(Br)cc3F)ncnc2cc1OCC1CCN(C)CC1 | 31.8
N#CC(c1ccnc(NCCc2cccnc2)n1)c1nc2ccccc2s1 (centres unmarked) | 99.4
CC(C)N(CCC(=O)c1ccc2ccccc2c1)Cc1ccccc1 | 106
CCN(CC)CCCCN1c2ccccc2Oc2ccc(Cl)cc21 | 102
Nc1nc(Nc2ccc(S(N)(=O)=O)cc2)nn1C(=S)Nc1c(F)cccc1F | 14.2
CC(C)(C)c1nc2c3cc[nH]c(=O)c3c3cc(F)ccc3c2[nH]1 | 96
NC(=O)c1cccc(-c2cc(Nc3ccc(OC(F)(F)F)cc3)ncn2)c1 | 99.1
FC(F)(F)c1ccc(/C=C/c2nc(COc3ccc(CCCCn4ccnn4)cc3)co2)cc1 | 95.2
O=Nc1c(-c2c(O)[nH]c3ccccc23)[nH]c2ccccc12 | 89.3
C[C@@H](N)[C@H]1CC[C@H](C(=O)Nc2ccncc2)CC1 | 88.9
Clc1ccc(Nc2nnc(Cc3ccncc3)c3ccccc23)cc1 | 90.5
c1cc(-c2cnn3cc(-c4ccc(OCCN5CCCCC5)cc4)cnc23)ccn1 | 79.8

Sample 3
SMILES: CN1CCN(C(=O)c2ccc(NC(=O)Nc3ccc(N(C)c4ccnc(Nc5ccc(CS(C)(=O)=O)cc5)n4)cc3)cc2)CC1
Technique: competitive binding panel
Concentration: 1 µM
Relative to: vehicle
target | assay | remaining binding
CDK19 (Homo sapiens, UniProt Q9BWU1) | measured: CDK11 | 100%
CHEK1 (Homo sapiens, UniProt O14757) | – | 100%
EIF2AK1 (Homo sapiens, UniProt Q9BQI3) | – | 100%
ROCK1 (Homo sapiens, UniProt Q13464) | – | 17%
CLK1 (Homo sapiens, UniProt P49759) | – | 84%
TGFBR2 (Homo sapiens, UniProt P37173) | – | 26%
TAOK3 (Homo sapiens, UniProt Q9H2K8) | – | 83%
PLK4 (Homo sapiens, UniProt O00444) | – | 2.7%
JAK1 (Homo sapiens, UniProt P23458) | – | 13%
MAP2K2 (Homo sapiens, UniProt P36507) | measured: MEK2 | 40%
ABL1 (Homo sapiens, UniProt P00519, F317L) | – | 34%
PAK5 (Homo sapiens, UniProt Q9P286) | measured: PAK7 | 67%
FLT3 (Homo sapiens, UniProt P36888) | – | 1.5%
MST1R (Homo sapiens, UniProt Q04912) | – | 41%

Sample 4
Host: mouse
Matrix: microsomes or S9
Concentration: 2 µM
Time: 0.5 h
Compound | remaining compound [%]
CC(OC(=O)c1cc2[nH]cnc2cc1F)c1nc2ncc(Br)cc2[nH]1 (centres unmarked) | 0.0543
CN(c1ccccc1)c1ncnc2c([C@H]3O[C@@H](COCc4ccccc4)[C@H](OCc4ccccc4)[C@@H]3OCc3ccccc3)cnn12 | 0.438
CC1(COc2ccccc2)CC(n2ccnc2)C(c2ccc(-c3ccccc3)cc2)=NO1 (centres unmarked) | 2.58
Brc1ccc(-c2n[nH]c(-c3ccccc3)c2-c2ncc[nH]2)cc1 | 39.9
Cc1nnc(SCc2nc(N)nc(Nc3ccc4ccccc4c3)n2)s1 | 0.0435
CC(C)(C)OC(=O)N1CCN(Cc2nc(-c3ccco3)n[nH]2)CC1 | 25.8
CCC(C)(C)C1CCc2c(sc(NC(=O)CC(C)CC(=O)O)c2C(N)=O)C1 (centres unmarked) | > 99
CCc1nccn1-c1cc(C)nc2c(-c3ccc(Cl)cc3)cnn12 | 46.5
O=C(CCc1nnc[nH]1)Nc1cc(C2CCCCCC2)[nH]n1 | 55.3
CS(=O)(=O)N1CCC[C@H]1C(=O)N[C@H]1C[C@H](c2cc(=O)[nH]c(C3CC3)n2)C1 | > 99
c1cnc2c(C3NCCc4c3[nH]c3ccccc43)cccc2c1 (centres unmarked) | 8.89
CNCc1cc(N(C)C)nc(C2CCCN2S(=O)(=O)c2ccc3c(c2)CC(=O)N3C)n1 (centres unmarked) | 87.7
Cc1cc(C)nc(Nn2c(-c3ccccc3)nc3ccccc3c2=O)n1 | 3.28
NC(=O)CN1C(=O)/C(=c2\sc3nc(=O)c(-c4ccccc4)nn3c2=O)c2ccccc21 | > 99
OCCN(CCO)c1ncnc2c1oc1ccc(Cl)cc12 | 17.5

Some of these lines once more (sample 2):
Structure (SMILES) | remaining activity [%]
O=C(O)/C=C/c1cc(Br)c(Br)c(Br)c1Br | 94.1
O=C1c2ccccc2-c2nc3nnnn3nc21 | 81.9
CCCCc1c(-c2ccc(O)cc2)[nH]c2nccnc12 | 89
O=C(c1ccccc1)c1ccc(N2CCOCC2)cc1O | 98.3
CC(C)n1cnc2c(Nc3cccc(Cl)c3)nc(NCCO)nc21 | 87.1
N#C/C(=C(/N)SC1C=CC=CC1)c1cccc(C(O)c2ccncc2)c1 (centres unmarked) | 105
CNc1cc2c(Nc3cccc(Br)c3)ncnc2cn1 | 94.6
COc1cc2c(Nc3ccc(Br)cc3F)ncnc2cc1OCC1CCN(C)CC1 | 31.8
N#CC(c1ccnc(NCCc2cccnc2)n1)c1nc2ccccc2s1 (centres unmarked) | 99.4
CC(C)N(CCC(=O)c1ccc2ccccc2c1)Cc1ccccc1 | 106
